Results gathered from unrelated publications.
Lines come from different studies, so protocols differ. “And” joins repeats or separate records; there may be more than shown. ± marks the error that the study gave.
BCHE: Cholinesterase (BCHE, Homo sapiens, UniProt P06276)
UniProt P06276, sequence (whole entry, looked up): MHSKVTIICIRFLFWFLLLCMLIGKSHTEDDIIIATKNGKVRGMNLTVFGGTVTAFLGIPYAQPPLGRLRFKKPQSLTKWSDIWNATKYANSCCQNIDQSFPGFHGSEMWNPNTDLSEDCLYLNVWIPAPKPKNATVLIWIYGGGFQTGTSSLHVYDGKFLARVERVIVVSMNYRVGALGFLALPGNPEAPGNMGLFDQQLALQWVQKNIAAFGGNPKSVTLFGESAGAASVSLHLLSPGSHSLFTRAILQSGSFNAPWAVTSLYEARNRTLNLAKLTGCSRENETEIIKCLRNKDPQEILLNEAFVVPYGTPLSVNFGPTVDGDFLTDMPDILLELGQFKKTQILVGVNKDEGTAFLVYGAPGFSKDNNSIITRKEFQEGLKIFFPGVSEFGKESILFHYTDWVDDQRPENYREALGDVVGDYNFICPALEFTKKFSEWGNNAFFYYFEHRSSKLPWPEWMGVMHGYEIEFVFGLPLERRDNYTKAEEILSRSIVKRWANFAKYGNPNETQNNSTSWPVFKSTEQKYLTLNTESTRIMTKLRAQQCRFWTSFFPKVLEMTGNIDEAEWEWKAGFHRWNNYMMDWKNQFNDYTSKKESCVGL
UniProt P11362, sequence (whole entry, looked up): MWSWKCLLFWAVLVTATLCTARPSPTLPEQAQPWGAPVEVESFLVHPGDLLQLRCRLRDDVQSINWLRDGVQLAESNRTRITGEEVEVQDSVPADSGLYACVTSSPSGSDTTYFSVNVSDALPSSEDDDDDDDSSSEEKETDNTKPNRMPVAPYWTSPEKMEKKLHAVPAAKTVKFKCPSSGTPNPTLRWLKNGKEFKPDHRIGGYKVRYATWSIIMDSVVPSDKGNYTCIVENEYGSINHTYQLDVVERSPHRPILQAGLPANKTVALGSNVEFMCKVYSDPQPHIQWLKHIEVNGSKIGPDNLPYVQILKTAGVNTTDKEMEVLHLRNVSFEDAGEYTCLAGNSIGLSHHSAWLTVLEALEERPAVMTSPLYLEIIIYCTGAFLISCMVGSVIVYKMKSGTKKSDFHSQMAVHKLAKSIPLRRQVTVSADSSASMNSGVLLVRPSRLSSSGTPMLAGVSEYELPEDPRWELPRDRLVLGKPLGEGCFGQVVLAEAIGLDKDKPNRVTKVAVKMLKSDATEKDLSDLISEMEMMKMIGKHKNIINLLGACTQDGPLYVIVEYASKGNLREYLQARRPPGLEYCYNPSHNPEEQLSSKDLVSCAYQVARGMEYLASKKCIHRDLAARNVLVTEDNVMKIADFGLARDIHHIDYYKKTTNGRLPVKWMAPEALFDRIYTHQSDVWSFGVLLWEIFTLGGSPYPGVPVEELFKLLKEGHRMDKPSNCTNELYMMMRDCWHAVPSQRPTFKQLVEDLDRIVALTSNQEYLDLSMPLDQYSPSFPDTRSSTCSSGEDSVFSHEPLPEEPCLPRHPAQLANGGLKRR
UniProt P51659, sequence (whole entry, looked up): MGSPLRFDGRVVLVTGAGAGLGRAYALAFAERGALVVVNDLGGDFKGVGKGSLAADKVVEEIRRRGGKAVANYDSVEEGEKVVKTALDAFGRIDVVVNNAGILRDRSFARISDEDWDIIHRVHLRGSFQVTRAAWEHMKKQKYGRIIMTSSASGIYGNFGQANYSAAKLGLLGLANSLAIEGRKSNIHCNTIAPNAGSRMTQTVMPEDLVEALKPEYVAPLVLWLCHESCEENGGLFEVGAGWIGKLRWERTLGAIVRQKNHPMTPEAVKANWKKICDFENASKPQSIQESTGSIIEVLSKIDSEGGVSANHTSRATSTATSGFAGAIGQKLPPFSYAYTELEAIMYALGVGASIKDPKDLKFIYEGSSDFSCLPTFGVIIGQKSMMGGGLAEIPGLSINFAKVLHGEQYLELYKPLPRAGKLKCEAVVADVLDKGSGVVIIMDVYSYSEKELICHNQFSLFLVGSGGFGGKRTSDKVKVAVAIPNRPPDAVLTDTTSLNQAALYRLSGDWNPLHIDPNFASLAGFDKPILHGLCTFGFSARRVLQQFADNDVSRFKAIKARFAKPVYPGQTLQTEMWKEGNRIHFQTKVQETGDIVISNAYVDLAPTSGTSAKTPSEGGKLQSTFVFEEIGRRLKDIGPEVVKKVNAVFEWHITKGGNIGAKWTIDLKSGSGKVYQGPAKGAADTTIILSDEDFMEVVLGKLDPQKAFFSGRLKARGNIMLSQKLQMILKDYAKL

SMILES | tested on | assay | test system | setting | scale | quantity | result
O=C(NCCCCN1CCN(c2cccc(Cl)c2Cl)CC1)c1cc2ccccc2s1 | BCHE | inhibitor, fluorometric | – | – | – | IC50 | 16.9 ± 4.22 µM
O=C(Nc1cccc(CN2CCN(C(=O)c3ccccc3)CC2)c1)c1cccs1.O=C(O)C(F)(F)F | Plasmodium falciparum | parasite growth, SYBR Green | – | 72 h | reference: 3D7-E182D over 3D7 | EC50 ratio | 5.9
O=C(Nc1cccnn1)N1CCC(=Cc2cccc(Oc3ccc(C(F)(F)F)cn3)c2)CC1 | FGFR1 (Homo sapiens, UniProt P11362) | kinase activity, inhibitor | – | 50 µM, human, together with: poly(Glu:Tyr) substrate | – | inhibition | -15%
CNCCC=C1c2ccccc2CCc2ccccc21 | Plasmodium falciparum | – | W2 | – | – | IC50 | 2.51 µM
COc1ccc(-n2ccnc2SCC(=O)Nc2cccc(C(F)(F)F)c2)c(OC)c1 | Plasmodium falciparum | parasite growth | – | – | – | EC50 | 1570 ± 720 nM
Cc1ccccc1NC(=O)Nc1ccc(CC(=O)N[C@@H](CCCCNC(=O)/C=C/c2cccnc2)C(=O)N[C@@H](CCCC(=O)O)C(=O)NC2(C(=O)NCCOCCOCCOCCOCC(=O)N[C@@H](CCCCNC(=S)Nc3ccc(CCCN(CCN4CCN(CP(=O)(O)O)CCN(CP(=O)(O)O)CC4)CC(=O)O)cc3)C(N)=O)CCCCC2)cc1 [gallium-68 labelled] | – | – | female C57BL/6 tumour-bearing mouse | intravenous, 4 h | reference: tumour over blood | tumour-to-blood ratio | 18.4 ± 4.7
CNC(=O)c1cc(Cl)cc(C)c1NC(=O)c1cc(Br)nn1-c1ncccc1Cl | Spodoptera litura | – | Brassica oleracea field plot | 25 ppm, 168 h, 5% water-dispersible granule | – | larval viability | 21.9% and 20% and 22.9%
C[C@H]1CN(c2n[nH]c3nc(N[C@H]4CC[C@H](NS(=O)(=O)CCC(F)(F)F)CC4)ncc23)CCO1 | HSD17B4 (Homo sapiens, UniProt P51659) | inhibitor, Kinobeads competition profiling | – | 0.8 µM | reference: vehicle | relative abundance | 1.06
CC(C)[C@@H]1NC(=O)[C@@H](Cc2ccccc2)NC(=O)[C@H](Cc2ccccc2)NC(=O)[C@@H]([C@H](C)O)NC(=O)[C@H]([C@@H](C)O)NC(=O)[C@@H](CCCNC(=N)N)NC1=O | Acanthamoeba castellanii | – | – | trophozoites | – | IC90 | > 16 µg/mL
Cc1cc(NC(=O)c2cc(S(=O)(=O)N3CCCCC3)ccc2C)no1 | Plasmodium falciparum | parasite growth, SYBR Green | – | 72 h | reference: 3D7-E182D over 3D7 | EC50 ratio | 5.4
CC(C)[C@H]1NC(=O)[C@H](Cc2ccccc2)NC(=O)[C@@H](Cc2c[nH]c3ccccc23)NC(=O)[C@H](CCCNC(=N)N)NC(=O)[C@@H](CCCN)NC(=O)[C@H](CC(N)=O)NC1=O | Acanthamoeba castellanii | – | – | trophozoites | – | IC90 | > 16 µg/mL
N=C(N)NC(=O)Cc1c(Cl)cccc1Cl | Plasmodium falciparum | – | 7G8 | – | – | IC50 | 5.01 µM
C[C@@H]1CN(c2ccnc3ccc(Sc4ccc(Oc5ccccc5)cc4)cc23)C[C@H](C)N1 | Plasmodium falciparum | parasite growth, SYBR Green | 3D7 DHODH E182D | 72 h | – | EC50 | 673 ± 81 nM
COc1c(CCC[P+](c2ccccc2)(c2ccccc2)c2ccccc2)cc2c(c1OC)OCO2.[I-] | IGROV-1 | SRB | – | – | – | GI50 | -5.99 log M
C[C@@H](N[C@H]1CCCC[C@@H]1NC(=O)c1ccc(Cl)cc1)c1cccc2ccccc12 | BCHE | inhibitor | – | with Triton | – | IC50 | 17.4 ± 3.26 µM
Cc1ccc2[nH]c3c(c2c1)CCCC3NCCCCc1ccccc1 (stereo not shown) | Streptococcus pneumoniae | – | – | concentration not given, 10% fetal bovine serum | reference: without serum | MIC fold change | 4
CC(COc1ccccc1)N(CCCl)Cc1ccccc1 (stereo not shown) | Plasmodium falciparum | – | HB3 | – | – | IC50 | 12.6 µM
CC(C)[C@@H]1NC(=O)[C@@H](Cc2ccccc2)NC(=O)[C@H](Cc2ccccc2)NC(=O)[C@@H]([C@H](C)O)NC(=O)[C@@H](CCCNC(=N)N)NC1=O | Naegleria fowleri | – | – | trophozoites | – | IC90 | > 16 µg/mL
CS(=O)(=O)CCCn1c(Cn2c(=O)n(CC(F)(F)F)c3ccncc32)cc2cc(Cl)ccc21 | respiratory syncytial virus | RT-qPCR | hospitalized infants 1-24 months, nasal swab | oral, 1-9 mg/kg daily, day 3, all doses combined | reference: placebo | LS mean difference vs placebo | -1.62 log10 copies/mL
COc1cc(N[C@H](C(=O)c2c[nH]c3ccc(OC(F)(F)F)cc23)c2ccc(Cl)cc2OC)cc(S(C)(=O)=O)c1 | dengue virus 2 | viral infection, luciferase reporter virus | – | 0.003 nM, 48 h | – | inhibition | 2.1%
CCCNC(=O)c1ccnc(-c2ccc(CNC3Cc4ccccc4C3)cc2)c1 | Plasmodium falciparum | parasite growth, SYBR Green | 3D7 wild type | 72 h | – | EC50 | 1250 ± 190 nM
NCCCC[C@H]1NC(=O)[C@H](CO)NC(=O)[C@H](Cc2ccccc2)NC(=O)[C@@H](Cc2ccccc2)NC(=O)[C@H](Cc2c[nH]c3ccccc23)NC(=O)[C@@H](CCCN)NC(=O)[C@H](CCCN)NC1=O | Acanthamoeba castellanii | – | – | trophozoites | – | IC90 | > 16 µg/mL
CN(C)c1ccc(O)c2c1C[C@H]1C[C@H]3[C@H](N(C)C)C(O)=C(C(N)=O)C(=O)[C@@]3(O)C(O)=C1C2=O | Plasmodium falciparum | – | 3D7 | – | – | IC50 | 0.794 µM
CC(C)C[C@H]1NC(=O)[C@H]([C@@H](C)O)NC(=O)[C@@H](CCCN)NC(=O)[C@H](CCCNC(=N)N)NC(=O)[C@@H](Cc2ccccc2)NC1=O | Acanthamoeba castellanii | – | – | trophozoites | – | IC50 | 12.1 µg/mL
OC(c1cc(C(F)(F)F)nc2c(C(F)(F)F)cccc12)C1CCCCN1 (stereo not shown) | Plasmodium falciparum | – | HB3 | – | – | IC50 | 0.008 µM
CC1(C)SC2C(NC(=O)C(NC(=O)C3=C(O)C(Cc4ccccc4)NC3=O)c3ccccc3)C(=O)N2C1C(=O)O (stereo not shown) | Escherichia coli | – | ΔtolC JW5503-1 | 200 µM, together with: 30 µg/mL 2,2'-bipyridyl | – | zone of inhibition | 16 mm
NCCCC[C@H]1NC(=O)[C@H](Cc2ccccc2)NC(=O)[C@H](Cc2c[nH]c3ccccc23)NC(=O)[C@@H](Cc2ccccc2)NC(=O)[C@H](Cc2ccccc2)NC(=O)[C@@H](CCCN)NC(=O)[C@H](CCCN)NC1=O | Naegleria fowleri | – | – | trophozoites | – | IC90 | > 16 µg/mL
CC(CCc1ccccc1)NC(C)C(O)c1ccc(O)cc1 (stereo not shown) | Plasmodium falciparum | – | W2 | – | – | IC50 | 2.51 µM

Excerpt of the above:
SMILES | tested on | assay | test system | setting | scale | quantity | result
CC(CCc1ccccc1)NC(C)C(O)c1ccc(O)cc1 (stereo not shown) | Plasmodium falciparum | – | W2 | – | – | IC50 | 2.51 µM
CC(COc1ccccc1)N(CCCl)Cc1ccccc1 (stereo not shown) | Plasmodium falciparum | – | HB3 | – | – | IC50 | 12.6 µM
Cc1cc(NC(=O)c2cc(S(=O)(=O)N3CCCCC3)ccc2C)no1 | Plasmodium falciparum | parasite growth, SYBR Green | – | 72 h | reference: 3D7-E182D over 3D7 | EC50 ratio | 5.4
O=C(NCCCCN1CCN(c2cccc(Cl)c2Cl)CC1)c1cc2ccccc2s1 | BCHE | inhibitor, fluorometric | – | – | – | IC50 | 16.9 ± 4.22 µM
C[C@H]1CN(c2n[nH]c3nc(N[C@H]4CC[C@H](NS(=O)(=O)CCC(F)(F)F)CC4)ncc23)CCO1 | HSD17B4 (Homo sapiens, UniProt P51659) | inhibitor, Kinobeads competition profiling | – | 0.8 µM | reference: vehicle | relative abundance | 1.06
